Experimental data collected from several papers.
Lines come from different studies, so protocols differ. Values joined by “and” are separate records of one study, mostly repeats; a detail may differ.
Target: Serine/threonine-protein kinase D2 (PRKD2, Homo sapiens, UniProt Q9BZL6)

| Compound | test | conditions | how to read | quantity | result |
| --- | --- | --- | --- | --- | --- |
| COc1cc(-n2cc3cc(F)cc(C(N)=O)c3n2)cc(Cl)c1C1CC(O)(CCO)Cc2ccccc21 (centres unmarked) | enzyme activity, inhibitor | 10 µM |  | inhibition | 0.78% |
| Cc1cnc2nc1Nc1cccc(c1)COC/C=C/COCc1cc(ccc1OCCN1CCOCC1)N2 | binding | 0.1 µM |  | remaining binding | 93% |
| NC(=O)C[C@H]1CCc2sc3ncnc(O[C@H]4CC[C@H](N5CCOCC5)CC4)c3c21 | enzyme activity, inhibitor | 10 µM |  | inhibition | 0% |
| Cc1cccc(O[C@H]2CCC[C@@H](C(C)CNCc3ccncc3)C2)c1 (relative stereo) | enzyme activity, inhibitor | 1 µM |  | inhibition | 1% |
| Cc1ccc(-c2c(/C=C(\C#N)C(=O)NC(C)C)n(CCCO)c3ncnc(N)c23)cc1 | cell-free assay, competition with immobilised ligand | 1 µM |  | remaining binding | 99% |
| C=CC(=O)N1CCc2ccc(-n3c(=O)ccc4cnc5ccc(-c6cnn(C)c6)cc5c43)cc21 | KINOMEscan | 1 µM | baseline: DMSO control | remaining binding | 99% |
| C=CC(=O)N1CCCC(n2c(=O)c3ncccc3n(Cc3ccc(Oc4ccccc4)cc3)c2=O)C1 (centres unmarked) | cell-free assay, competition with immobilised ligand | 1 µM |  | remaining binding | 92% |
| C=CC(=O)Nc1cccc(-c2cnc3[nH]cc(C(=O)NC(C)(C)C)c3n2)c1 | kinase activity | 0.1 µM |  | inhibition | 7% and 3% |
| O=C=[N][Ru-4]123([n]4c5ccc(O)cc5c5c6c(c7cc(F)c[n+]1c7c54)C(=O)NC6=O)[S+]1CC[S+]2CC[S+]3CC1 (centres unmarked) | enzyme activity | 100 nM, human enzyme, added: 10 µM ATP | baseline: untreated | remaining activity | 103% |
| CNC(=O)C[C@H](Cc1ccc(C#N)cc1)NC(=O)c1cc(-c2ccc(CN[C@H](C)c3ccc(C)cc3)o2)ccc1Cl | enzyme activity, inhibitor | 1 µM |  | activity vs control | 114% |
| CN1CCN(Cc2ccc(-c3ccc(CO[C@H]4CCC[C@@H]4NC(=O)c4cc(-c5cnn(C)c5)cnc4N)cc3)cc2)CC1 | enzyme activity, inhibitor | 0.1 µM |  | inhibition | 8% |
| O=c1c(-c2ccc(Cl)c(CN3CCOCC3)c2)coc2cc(O)ccc12 | enzyme activity, inhibitor | 1 µM |  | remaining activity | 92% |
| COc1c(Cl)cccc1Nc1c(-c2ccncc2C#C[C@@]2(C)CCCN2C(=O)/C=C/CN(C)C)[nH]c2c1C(=O)NCC2 | binding, competition with immobilised ligand | 3 µM |  | remaining binding | 94% |
| COc1ccc(NC(=O)Nc2ccc3c(c2)C(=O)N(C(C)CO)CC(C)C(CN(C)Cc2ccc4c(c2)OCO4)O3)cc1 (centres unmarked) | kinase activity, KinaseProfiler | 0.03 µM, species human | baseline: control | remaining activity | 101% |
| COc1cc(Nc2nccc(-c3cnn4nc(OC)ccc34)n2)cc(C(F)(F)F)c1 | binding, competition with immobilised ligand | 1 µM |  | remaining binding | 100% |
| CN1CC[C@@H](COc2cnc(C#N)cc2-c2ccn3nc(NC(=O)C4CC4)cc3c2)C1 | enzyme activity, inhibitor | 1 µM |  | inhibition | 6% |
| O=C(Cc1ccc(OCc2ccccc2)cc1)NC1(C(=O)O)CCN(C(=O)c2ccc(-c3cccc(Cl)c3)cc2)CC1 | enzyme activity, inhibitor | 10 µM |  | activity vs control | 100% |

Some of these lines once more:
| Compound | test | conditions | how to read | quantity | result |
| --- | --- | --- | --- | --- | --- |
| Cc1cnc2nc1Nc1cccc(c1)COC/C=C/COCc1cc(ccc1OCCN1CCOCC1)N2 | binding | 0.1 µM |  | remaining binding | 93% |
| COc1ccc(NC(=O)Nc2ccc3c(c2)C(=O)N(C(C)CO)CC(C)C(CN(C)Cc2ccc4c(c2)OCO4)O3)cc1 (centres unmarked) | kinase activity, KinaseProfiler | 0.03 µM, species human | baseline: control | remaining activity | 101% |
| COc1c(Cl)cccc1Nc1c(-c2ccncc2C#C[C@@]2(C)CCCN2C(=O)/C=C/CN(C)C)[nH]c2c1C(=O)NCC2 | binding, competition with immobilised ligand | 3 µM |  | remaining binding | 94% |
